Earlier results that unrelated publications cite.
± gives the spread as reported.

SMILES | tested on | test | system | conditions | how to read | endpoint | result
Nc1ccc(C(=O)C=C(O)C(F)(F)C(F)(F)F)cn1 | Plasmodium falciparum formate-nitrite transporter | L-lactate transport, inhibitor, radiolabelled uptake | yeast | – | – | IC50 | 190 ± 20 nM
COc1cccc(CNC(=O)c2ccc3cccc(O)c3n2)c1 | urea transporter UT-A1 | inhibitor | – | – | – | IC50 | ~5300 nM
COc1cccc(-c2cc(F)ccc2[C@H]2Cc3nc(N)nc(C)c3C(=O)N2)n1 | Hsp90β | – | – | – | – | IC50 | 0.8 nM
C[C@H](CN(C)Cc1ccccc1)NC(=O)c1ccc(-c2noc(C(F)(F)F)n2)cc1 | class IIa HDAC | enzyme activity, inhibitor | HT-29 | – | – | IC50 | 46 ± 15 nM
COc1ccc(C(=O)C=C(O)C(F)(F)C(F)(F)F)c(O)c1 | Plasmodium falciparum formate-nitrite transporter | L-lactate transport, inhibitor, radiolabelled uptake | yeast | – | – | IC50 | 170 ± 10 nM
CCc1cccc(Sc2cc(C(=O)N3Cc4ccccc4C3)ccc2O)c1 | Hsp90β | inhibitor | – | – | – | IC50 | 22300 nM
O=C1NC2CCCCC2NC1c1c[nH]c2ccccc12 (stereo not shown) | COLO 320 ABCB1-resistant colon | cytotoxicity | – | – | – | IC50 | > 100000 nM
CC(C)NCCCn1c(Sc2cc(Cl)cc(Cl)c2)nc2c(N)ncnc21 | Hsp90β | inhibitor | – | – | – | IC50 | 41800 nM
FC(F)(F)C(F)(F)c1nc(-c2cccnc2)n[nH]1 | Plasmodium falciparum formate-nitrite transporter | L-lactate transport, inhibitor, radiolabelled uptake | yeast | – | – | IC50 | 8440 ± 1850 nM
COc1ccc(Nc2nc(Nc3ccc(OCC[18F])cc3)ncc2Br)cc1 | – | – | S180 tumour-bearing mice | intravenous, 30 min | reference: tumour over muscle | tumour to tissue ratio | 2.14
CCOC(=O)C(c1cc(Cl)c2cccnc2c1O)N1CCOCC1 (stereo not shown) | COLO 205 | cell viability | – | – | – | IC50 | 2050 nM
CC(C)=CCC/C(C)=C/CCn1cc(CC(P(=O)(O)O)P(=O)(O)O)nn1 | geranylgeranyl diphosphate synthase | enzyme activity, inhibitor | – | – | – | IC50 | 173 nM
O=C(CCc1ccc(Br)cc1)N[C@H]1CCOC1=O | LuxR | reporter gene, luxI-luxCDABE reporter | – | – | – | IC50 | 1000 nM

Some of these lines once more:
SMILES | tested on | test | system | conditions | how to read | endpoint | result
COc1cccc(CNC(=O)c2ccc3cccc(O)c3n2)c1 | urea transporter UT-A1 | inhibitor | – | – | – | IC50 | ~5300 nM
